Results collected from several papers.
A part holds a random share of what one study measured.

Series 1
Target: Replicase polyprotein 1ab, nsp13 helicase (rep, Severe acute respiratory syndrome coronavirus 2, UniProt P0DTD1)
Action: inhibitor
Concentration: 20 µM
Quantity: inhibition
C[C@H]1[C@H](C)CC[C@]2(C(=O)O)CC[C@]3(C)C(=CC[C@@H]4[C@@]5(C)CC[C@H](O)C(C)(C)[C@@H]5CC[C@]43C)[C@H]12: 2.56%
CC(=O)c1ccc(S(=O)(=O)NC(=O)NC2CCCCC2)cc1: 4.55%
CN1C(=O)CC(c2ccccc2)C1=O (stereo not shown): 3.8%
NC(=O)OC[C@@H]1[C@H](NC(=O)/C(=N\OCC(=O)O)c2csc(N)n2)C(=O)N1S(=O)(=O)O: 4.97%
COc1nccc(-c2c(-c3ccc(F)cc3)ncn2[C@H]2CC[C@H](O)CC2)n1: -0.81%
Cc1cccc(C)c1NC(=O)CN1CCCCCC1: -0.28%
O=C(O)CCn1c2c(c3ccccc31)C[C@H](NS(=O)(=O)c1ccc(F)cc1)CC2: 0.51%
CC(C)[C@H](N)C(=O)OCC(CO)OCn1cnc2c(=O)nc(N)[nH]c21 (stereo partly shown): 7.15%
CC1(C)[C@@H]2C[C@H]1[C@@](C)(O)[C@@H](O)C2: 8.47%
CC(C)Oc1ccc(-c2cnc3c(-c4ccnc5ccccc45)cnn3c2)cc1: -2.9%
O=C1NS(=O)(=O)c2ccccc21: 2.65%
CC(=O)O[C@H]1Cc2ccccc2N(C(N)=O)c2ccccc21: 2.03%
COC1(C2=NCCN2)COc2ccccc2O1 (stereo not shown): -0.48%
CCSC(=N)N: 2.92%
CCCn1c(=O)[nH]c2nc(-c3ccc(S(=O)(=O)O)cc3)[nH]c2c1=O: 4.27%
Cc1cc(-c2ccccc2)nnc1NCCN1CCOCC1: -4.91%
CCOP(=S)(OCC)Oc1nc(Cl)c(Cl)cc1Cl: 3.43%
CN1CCc2cc3c(cc2C1O)OCO3 (stereo not shown): 3.61%

Series 2
Organism: Vesicular stomatitis virus
Read-out: pseudovirus infection
Method: FDA-approved drug library screen
Concentration: concentration not given
Notes: SARS-CoV-2 spike pseudotype
Relative to: vehicle
Quantity: GFP-positive cells
FC(F)(F)C(Cl)Br (stereo not shown): 90.5%
COc1ccc(C[C@@H](C)NC[C@H](O)c2ccc(O)c(NC=O)c2)cc1.COc1ccc(C[C@@H](C)NC[C@H](O)c2ccc(O)c(NC=O)c2)cc1.O=C(O)/C=C/C(=O)O: 95.8%
Cl.N=C(N)NN: 89.1%

Series 3
Target: RING finger protein unkempt homolog, zinc fingers 1-6, GST-SBP tag (UNK, Homo sapiens, UniProt Q9C0B0, residues 30-357)
Method: RNA Bind-n-Seq
Molecule type: RNA
Sample: in vitro
Concentration: not given
Notes: RNA with constant flanks, ends assumed
Relative to: input RNA pool
Direction: higher = stronger binding
Quantity: bound/input enrichment
Constant ends, left off below: GGGAGUUCUACAGUCCGACGAUC … CAACAGAGGAUUGAGCAUCA
Target sequence (chain): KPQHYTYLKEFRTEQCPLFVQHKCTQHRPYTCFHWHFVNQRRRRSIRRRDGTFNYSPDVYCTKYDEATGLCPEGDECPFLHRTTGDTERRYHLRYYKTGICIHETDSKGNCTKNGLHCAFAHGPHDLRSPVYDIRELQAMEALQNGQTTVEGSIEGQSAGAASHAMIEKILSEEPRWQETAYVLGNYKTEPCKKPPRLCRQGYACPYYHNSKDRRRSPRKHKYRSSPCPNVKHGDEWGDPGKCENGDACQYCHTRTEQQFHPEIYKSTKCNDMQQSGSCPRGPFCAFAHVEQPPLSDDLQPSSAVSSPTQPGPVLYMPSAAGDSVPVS
CUCAGGUGUAAAAGCCACACGAAGAAAUGAGCUGUAAGCGGUGGCAUCACUUUGGAUACUCCGUUUAAAAGUAUAUGUGUGAUUUUCUAUGUUCCAAAACUAUCAUGAGUUUUUUGGCCC: 0.138 ratio
UCUUGUUCCUCCAGCCUAAGUGCUCUGAGCCUGGAUGAGCCAUUUAUACAGAAAGAUGCCGAAUUAAGAAUCAUGCCUCCAGUUCAGGAAAACGACAAUGGGAAUGAAACUGAAUCAGAA: 0.132 ratio
CUGACCAGAGUCUCUGAAGACCCCAUCCAACGCUCCAAUGGCCAGCAACAACACCGCCAGCACCGCACAAGCCAGGAAGCUGGUAGAACAGCUGAAGAUGGAAGCCAACAUCGACAGGAU: 0.0769 ratio
CCAUAAGUACAGUUGAUCAAAGUCAUAGUAGGUAAAUGCUUUAUGGGACAGCUGACACCUUUCCGACCCUACCAGGUAUUGCUAGCAUGUGAGCUGCAGUUGUGGGGUCUGAGAUAUUUC: 0.196 ratio
GACGUAUUUUCUGUGUAAUUCUCUUGUUCUUAUACUACCUGCAUUAUCUUUAUGUCACUGCCGCAAAUGCCUAUCAUAAGUCAACUCUCAGGAGCCAUAAUGGGACAAGCUAAUAACUAG: 0.174 ratio
CGUGGAGAUACAGACCAGGCCAGUAAUAUUUUGGCCAGCUUUGGUCUGUCUGCUAGAGACUCCGAUGAACUGAGUCGCUAUCCAGAGGACAAGAUUACUCCUGAGAACUUGCCCCAAAUU: 0.108 ratio
AUUGUCCCCUGGUGAGGGGAGCAGGGGAGAGAAAAUGGUAGCCAUUUUUACAUUGUUUUGUACCGUAUUUAUUGAUUCAGGAAACAAACACAAAAUUCUGAAUAAAAUUACUUGGAAACU: 0.543 ratio
ACCUUUUCAUUUUUAUUUUUUCUUUUCUCAACCAUUACGGUUUAUCUUUUUUUAAUGCAGACCGUUAAAAUUUCACUGCCAGGUUUCUUCUGCCCACCCAAAAGAUCCAGUCUAUAAUUA: 2.55 ratio

Series 4
Target: Replicase polyprotein 1ab, main protease (rep, Severe acute respiratory syndrome coronavirus 2, UniProt P0DTD1)
Read-out: enzyme activity
Action: inhibitor
Concentration: 20 µM
Notes: hit confirmation, no DTT
Quantity: inhibition
CC[n+]1c(-c2ccccc2)c2cc(N)ccc2c2ccc(N)cc21: 60.2%
COc1cc(C(=S)N2CCOCC2)ccc1O: 99.4%
CNS(=O)(=O)C[C@H]1CC[C@H](N(C)c2ncnc3[nH]ccc23)CC1: 52.5%

Series 5
Target: RNA binding protein fox-1 homolog 2, RRM domain, GST-SBP tag (RBFOX2, Homo sapiens, UniProt O43251-10, residues 100-194)
Method: RNA Bind-n-Seq
Molecule type: RNA
Sample: in vitro
Concentration: 365 nM
Notes: natural RNA segment, single round, ends assumed
Relative to: no-protein control
Direction: higher = stronger binding
Quantity: RBNS enrichment (R)
Constant ends, left off below: GGGAGUUCUACAGUCCGACGAUC … UGGAAUUCUCGGGUGCCAA
Target sequence (chain): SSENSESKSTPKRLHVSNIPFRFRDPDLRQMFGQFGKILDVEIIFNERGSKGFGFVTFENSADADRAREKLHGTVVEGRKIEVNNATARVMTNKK
UUCAUUCCAACCCUCUUCUGCCUCUGCCGCUUGUGAGAGGACAAAUGGCCAUCCUCAGCAGGGUGGAGGGAGUGUGCGAGAAACCAGACACUUUGGUUUCUGUAAUCUUC: 1.98
GCAAAAAACCCUGUAAAUCAGGAGAUAUAAGCACAUCUGCACCCAGAAUAGGCCCAUAUGAUAGGGCAACCCUGAGCUUAAACAAUGACAUCUUCAAGGGUAGAACUAAU: 0.641
UGAUCAUUGCACUUAAAAUAUUAAUACUUCGGAGGAUAAAGCAGAAGGGUCAUAAGCUCAAGGCCAUUUUUAGAAGCUUGUUGGGACACUGUCUCCAAUAGAAAGUGAAA: 0.917
AGUGUCUUUCUUUUCUCUUUCUAGCUGAAUAGUUCUAUUUCAAAUGUUCCCUUAAAACUCAGACUUCAACACAUCAGUUAAAUUUGUACUUUAGUUGUGGGUGUUAGAGU: 0.684
GAGGAAUUACGUGCUCUGUGGGUCUCCCCCAACGCGCCUCGCCGGAUCUGAGGGAGAACAAGACCGAUCGGCGGCCACUGCGCCCUUAACUGCAUCCAGCCUGGGGCUGA: 0.646
CAUGGAGAGCCUCUUAGUGAUUGUGUCUGCAUUGUUAUUGUGGAAGAUUUACCUUUUCUGUUGUACGUAAAGCUUAAAUUGCUUUUGUUGUGACUUUUUAGCCAGUGACU: 0.339
GGGCAAGCCAAGUACGAAGCAGCAGCCAUCGCGGGCUGCAUCAUCCCCCAGCCAGGUCCCCACCAGGCCUGUCUCCCAGCGUUUGUCUAAUAAACGCACCCCUCCUAAAA: 0.591
GCCCCUGCCGCGCGGGGGGCUGGGUCUGGUUGAGUCGCUGCUUUCCCGAGGGCAGCGCAGGGAUCCGGGGAAGCUGCGGCAGGGAGCGGGCGCCGGCUUCGUGGCUCUGA: 0.632

For quick reference, copied from above (series 5):
AGUGUCUUUCUUUUCUCUUUCUAGCUGAAUAGUUCUAUUUCAAAUGUUCCCUUAAAACUCAGACUUCAACACAUCAGUUAAAUUUGUACUUUAGUUGUGGGUGUUAGAGU: 0.684
GAGGAAUUACGUGCUCUGUGGGUCUCCCCCAACGCGCCUCGCCGGAUCUGAGGGAGAACAAGACCGAUCGGCGGCCACUGCGCCCUUAACUGCAUCCAGCCUGGGGCUGA: 0.646
CAUGGAGAGCCUCUUAGUGAUUGUGUCUGCAUUGUUAUUGUGGAAGAUUUACCUUUUCUGUUGUACGUAAAGCUUAAAUUGCUUUUGUUGUGACUUUUUAGCCAGUGACU: 0.339
GGGCAAGCCAAGUACGAAGCAGCAGCCAUCGCGGGCUGCAUCAUCCCCCAGCCAGGUCCCCACCAGGCCUGUCUCCCAGCGUUUGUCUAAUAAACGCACCCCUCCUAAAA: 0.591
GCCCCUGCCGCGCGGGGGGCUGGGUCUGGUUGAGUCGCUGCUUUCCCGAGGGCAGCGCAGGGAUCCGGGGAAGCUGCGGCAGGGAGCGGGCGCCGGCUUCGUGGCUCUGA: 0.632
